Measured values pooled from the literature.
A part holds a random share of what one study measured.

Study 1 — method: protein-binding microarray; molecule type: double-stranded DNA, one strand shown; matrix: in vitro; tested at: 2200 nM top; setting: 60-bp whole probe; together with: salmon DNA 0.4 mg/ml; reference: random background probes; reading: higher = stronger binding
Target: Interferon regulatory factor 7, full length, phosphomimetic (IRF7, Homo sapiens, UniProt Q92985, residues 1-503, S471D/S472D/S475D/S476D/S477D/S483D/S484D/S487D)
Sequence of UniProt Q92985 (whole entry, unmodified, looked up): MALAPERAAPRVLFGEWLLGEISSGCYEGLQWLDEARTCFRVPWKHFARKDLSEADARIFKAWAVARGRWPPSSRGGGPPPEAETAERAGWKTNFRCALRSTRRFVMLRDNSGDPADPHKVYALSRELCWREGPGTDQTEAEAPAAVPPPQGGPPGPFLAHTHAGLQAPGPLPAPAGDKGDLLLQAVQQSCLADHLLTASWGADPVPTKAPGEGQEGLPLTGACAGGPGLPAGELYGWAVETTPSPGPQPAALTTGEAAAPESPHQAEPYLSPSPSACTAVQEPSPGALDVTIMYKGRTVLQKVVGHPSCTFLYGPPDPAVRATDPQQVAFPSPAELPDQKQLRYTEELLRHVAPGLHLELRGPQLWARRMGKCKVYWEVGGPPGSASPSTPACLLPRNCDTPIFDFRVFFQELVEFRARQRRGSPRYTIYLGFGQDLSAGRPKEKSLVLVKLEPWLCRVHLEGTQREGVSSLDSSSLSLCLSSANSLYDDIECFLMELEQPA
Under “fitted relative affinity”, `GCCTAGCACCCTGGACGGGAGTGCGGTGCGTGCTAGGTCTTGATTCGCTTGACGCTGCTG` is recorded as -1.22 z-score.
Under “fitted relative affinity”, `GCCTAGCACTTTGGACTGGACTATCGGTTAGTGCTAGTCTTGATTCGCTTGACGCTGCTG` is recorded as 0.103 z-score.
`GCCTAGCACCCTGGTTTTACTTTCTATCTGTGCTAGGTCTTGATTCGCTTGACGCTGCTG` — result for “fitted relative affinity”: 5.23 z-score.
Under “fitted relative affinity”, `GCCTAGCACGACGATTTCCGTTCCGAGACGTGCTAGGTCTTGATTCGCTTGACGCTGCTG` is recorded as 3.25 z-score.

Study 2 — method: protein-binding microarray; molecule type: double-stranded DNA, one strand shown; matrix: in vitro; tested at: 0.8 µM; setting: whole 60-bp probe, no competitor; reading: higher = stronger binding
Target: Centromere-binding protein 1, full length, N-terminal tag (CBF1, Saccharomyces cerevisiae, UniProt P17106, residues 1-351)
Sequence of UniProt P17106 (whole entry, looked up): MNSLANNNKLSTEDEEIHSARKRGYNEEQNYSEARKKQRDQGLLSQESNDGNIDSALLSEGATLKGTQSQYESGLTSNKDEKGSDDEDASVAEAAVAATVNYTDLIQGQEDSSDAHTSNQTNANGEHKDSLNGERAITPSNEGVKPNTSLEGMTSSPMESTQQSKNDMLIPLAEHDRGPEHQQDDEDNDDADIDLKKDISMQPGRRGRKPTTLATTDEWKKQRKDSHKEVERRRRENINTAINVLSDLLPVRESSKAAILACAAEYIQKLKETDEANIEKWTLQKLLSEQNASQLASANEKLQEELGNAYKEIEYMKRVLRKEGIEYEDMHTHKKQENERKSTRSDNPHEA
With `CCTAACTACTATAGGCACGTGATATAGCTTCGTACAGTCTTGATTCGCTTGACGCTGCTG` the fluorescence intensity was 17800 a.u.
For `CTACAGTATGTCCACCACGTAAATCAACAAAATTTCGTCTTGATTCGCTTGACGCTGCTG`, the fluorescence intensity was 505 a.u.
With `GAATGTATTGTTGGTCACACATATATAGATGCCTAGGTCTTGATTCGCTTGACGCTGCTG` the fluorescence intensity was 692 a.u.
With `CTACGCATTTGGCATGGTGTGGTGATGTCTCTTTTCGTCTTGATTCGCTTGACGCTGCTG` the fluorescence intensity was 587 a.u.
`GAAATCTAAACTACTCACATGAAAAGATTACTATAGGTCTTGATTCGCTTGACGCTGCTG` has a fluorescence intensity of 625 a.u.

Study 3 — method: universal PBM; molecule type: double-stranded DNA, one strand shown; matrix: in vitro; tested at: not given; reading: higher = stronger binding
Target: Sal-like protein 4, full length isoform B (SALL4, Homo sapiens, UniProt Q9UJQ4-2, residues 1-616)
Setting: 8-mer, flanks averaged, mean of replicates
`AAAAACTT` has an E-score of 0.361.
`AACTTAGT` has an E-score of 0.0857.
`GACCAGTA` gave an E-score of -0.186.
The E-score of `ATCATGTC` is reported as 0.0626.
The E-score of `ACAACACG` is reported as 0.018.

Mixed results
`PhoQ, residues 284 288 289 292 302 303 SCCLKL` has a fold induction of 11.1 (PhoP, residues 12 14 15 18 19 FWNTL (Escherichia coli, UniProt P23836); Sort-seq, refers to: YFP reporter; E. coli; PhoQ-PhoP variant library, together with: 10 µM Mg2+; reference: high Mg2+ state, higher = stronger signaling).

A few entries again (study 3):
`AACTTAGT` has an E-score of 0.0857.
`GACCAGTA` gave an E-score of -0.186.
